{"data": "Measurements of several laboratories", "note": "Compare with care: the assays were run in different laboratories."}
{"Compound": "CCO[C@H]1CCN(Cc2c(OC)cc(C)c3[nH]ccc23)[C@H](c2ccc(C(=O)O)cc2)C1", "assay": "measured: abdominal discomfort", "test system": "PNH patients with active haemolysis", "conditions": "oral, 100 mg, extension phase", "quantity": "adverse event incidence", "value": "40%"}
{"Compound": "CC#CC(=O)N[C@H]1CCCN(c2c(F)cc(C(N)=O)c3[nH]c(C)c(C)c23)C1", "test system": "healthy volunteers", "conditions": "oral, 3 mg single dose, SAD phase I", "quantity": "adverse events", "value": "33.3%"}
{"Compound": "Cc1cc(C)c(CNC(=O)c2cc(Cl)c3c(c2C)O[C@@](C)([C@H]2CC[C@H](N(C)C)CC2)O3)c(=O)[nH]1", "test system": "relapsed/refractory NHL patients", "conditions": "oral, 200 mg once daily, onset after cycle 1 day 1", "quantity": "adverse event Headache", "value": "20.8%"}
{"Compound": "CC(=O)O[C@H]1C(=O)[C@@]2(C)[C@H]([C@H](OC(=O)c3ccccc3)[C@]3(O)C[C@H](OC(=O)[C@H](O)[C@@H](NC(=O)c4ccccc4)c4ccccc4)C(C)=C1C3(C)C)[C@]1(OC(C)=O)CO[C@@H]1C[C@@H]2O", "assay": "measured: Alopecia", "test system": "patients with advanced solid tumours", "conditions": "intravenous, dose not given, all grades, possibly related to drug", "quantity": "adverse event incidence", "value": "28%"}
{"Compound": "CC(=O)N(C)[C@H]1CCN(C(=O)c2cnc3c(c2)C[C@](C)(c2ccc(F)cc2)N3)C1", "assay": "measured: Hematoma", "test system": "human", "conditions": "oral, 30 mg once daily", "quantity": "adverse event duration", "value": "11 days"}
{"Compound": "CC(C)C[C@H](NC(=O)CNC(=O)c1cc(Cl)ccc1Cl)B(O)O", "test system": "newly diagnosed multiple myeloma patients", "conditions": "oral, dose not given, Constipation, maintenance", "quantity": "adverse events grade 3", "value": "0%"}
{"Compound": "C=CC[C@@H]1/C=C(\\C)C[C@H](C)C[C@H](OC)[C@H]2O[C@@](O)(C(=O)C(=O)N3CCCC[C@H]3C(=O)O[C@H](/C(C)=C/[C@@H]3CC[C@@H](O)[C@H](OC)C3)[C@H](C)[C@@H](O)CC1=O)[C@H](C)C[C@@H]2OC", "assay": "measured: gastrointestinal disorders", "test system": "kidney transplant recipients", "conditions": "oral, dose not given", "quantity": "adverse drug reactions", "value": "22%"}
{"Compound": "C[C@H]1CNCCCN1S(=O)(=O)c1cccc2cncc(F)c12", "assay": "measured: Miliaria", "test system": "healthy adult men", "conditions": "topical ocular, 1 drop per eye twice daily, 8 days", "quantity": "adverse events", "value": "5.6%"}
{"Compound": "NCCONC(=O)[C@@H]1CC[C@@H]2CN1C(=O)N2OS(=O)(=O)O", "assay": "measured: urinary red blood cells positive", "test system": "healthy Chinese men", "conditions": "intravenous, 2 g, treatment-emergent", "quantity": "adverse event incidence", "value": "0%"}
{"Compound": "Cc1cc(Nc2ccc(S(F)(F)(F)(F)F)cc2)n2nc(C(C)(F)F)nc2n1", "test system": "Plasmodium vivax malaria patients", "conditions": "oral, 600 mg", "quantity": "adverse event Asthenia", "value": "0%"}
{"Compound": "O=C(c1cccnc1-c1ccncc1)N1CCC(O)(Cc2ccccc2)CC1", "test system": "healthy Japanese adults", "conditions": "oral, dose not given, 21 days", "quantity": "adverse events leading to discontinuation", "value": "0%"}
{"Compound": "Cc1c(Cl)c(C)[n+]([O-])c(Cl)c1-c1noc(-c2cc(O)c(O)c([N+](=O)[O-])c2)n1", "assay": "measured: Presyncope", "test system": "healthy Chinese subjects", "conditions": "oral, 25 mg, 4 days", "quantity": "adverse drug reaction incidence", "value": "0%"}
